Published values gathered from unrelated publications.
Each numbered part is a random draw from the data of one study; scales do not carry over between parts. Substitutions count along the parent as printed.

Block 1 — target: CCNB2, cyclin fold, Cln2 fusion (human); technique: yeast growth competition, sequencing; medium: yeast; setting: weak parent motif; relative to: not given; direction: higher = stronger binding
Starting sequence: SLBP docking peptide (human); ARYKRKLLINDFG
Change | normalised enrichment score
R5L | 0.587
F12M | 0.228
G13F | 0.618
K4D | 0.0711
G13L | -0.00441
A1Y | 0.507
R2N | 0.53
I9L | 0.725
G13R | 0.244
G13Q | 0.443
D11E | 0.802
I9K | 0.993
K4T | 0.377
A1S | 0.755
K6W | 0.613
F12W | 0.305
Y3T | 0.548

Block 2 — technique: protein-binding microarray; molecule type: hairpin DNA; medium: in vitro; tested at: not given; relative to: not given; direction: higher = stronger binding; constant ends, left off below: GAGGCC … GGCCTCACACTCTTTCCCTACACG
Target: Signal transducer and activator of transcription 1-alpha/beta, full length (STAT1, Homo sapiens, UniProt P42224, residues 1-750)
Sequence of UniProt P42224 (whole entry, looked up): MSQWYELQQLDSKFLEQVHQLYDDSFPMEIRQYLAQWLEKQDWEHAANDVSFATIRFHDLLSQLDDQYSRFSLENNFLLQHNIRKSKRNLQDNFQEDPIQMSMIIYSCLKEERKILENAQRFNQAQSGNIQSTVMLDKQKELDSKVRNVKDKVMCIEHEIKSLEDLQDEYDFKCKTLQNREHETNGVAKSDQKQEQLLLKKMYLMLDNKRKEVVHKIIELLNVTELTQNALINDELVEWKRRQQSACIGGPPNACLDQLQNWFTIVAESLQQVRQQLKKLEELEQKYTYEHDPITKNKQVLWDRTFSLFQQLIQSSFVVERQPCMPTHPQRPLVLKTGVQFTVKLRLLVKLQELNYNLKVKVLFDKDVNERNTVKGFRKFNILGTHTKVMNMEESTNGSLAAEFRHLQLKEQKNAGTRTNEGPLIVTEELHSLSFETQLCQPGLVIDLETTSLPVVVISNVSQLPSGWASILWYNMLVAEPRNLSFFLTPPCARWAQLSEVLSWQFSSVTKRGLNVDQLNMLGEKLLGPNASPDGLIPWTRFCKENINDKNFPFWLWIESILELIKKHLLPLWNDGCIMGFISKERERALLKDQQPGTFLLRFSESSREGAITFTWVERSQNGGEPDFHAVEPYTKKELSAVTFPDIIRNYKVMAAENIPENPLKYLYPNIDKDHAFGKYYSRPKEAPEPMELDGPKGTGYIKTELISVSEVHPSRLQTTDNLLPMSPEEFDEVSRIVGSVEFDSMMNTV
Setting: whole hairpin DNA, median over replicate spots
Sequence | median fluorescence
TTTCCCGGAAGCCTCCTGGCTTCCGGGAAA (5mC at 11) | 12100 a.u.
TTTCCGGGAAGCCTCCTGGCTTCCCGGAAA (5mC at 11) | 11100 a.u.
TTTCCGGGAAGCCTCCTGGCTTCCCGGAAA (5mC at 31) | 4530 a.u.
TTCGCCGGAAGCCTCCTGGCTTCCGGCGAA | 1290 a.u.
TTTCCCCTAAGCCTCCTGGCTTAGGGGAAA (5mC at 13) | 1050 a.u.
TTTCCCGCTAGCCTCCTGGCTAGCGGGAAA | 990 a.u.
ATTCCCGGAAGCCTCCTGGCTTCCGGGAAT | 10200 a.u.
TTTCCCGGCGGCCTCCTGGCCGCCGGGAAA | 920 a.u.
TTTCGCGGAAGCCTCCTGGCTTCCGCGAAA (5mC at 10) | 3030 a.u.
TTTCCCGCAAGCCTCCTGGCTTGCGGGAAA | 1170 a.u.
TTTCCCCGAAGCCTCCTGGCTTCGGGGAAA (5mC at 12) | 2190 a.u.
GTTCCCGGAAGCCTCCTGGCTTCCGGGAAC | 6450 a.u.
TTTCCCCAAAGCCTCCTGGCTTTGGGGAAA | 933 a.u.
TTTCCCGGCAGCCTCCTGGCTGCCGGGAAA (5mC at 15) | 2130 a.u.
TTTCCCAGAAGCCTCCTGGCTTCTGGGAAA | 3500 a.u.
TTTCACGGAAGCCTCCTGGCTTCCGTGAAA | 1480 a.u.
TTCTCCGGAAGCCTCCTGGCTTCCGGAGAA | 1060 a.u.
TTTCCCGCGAGCCTCCTGGCTCGCGGGAAA (5mC at 14) | 935 a.u.
TTCGCCGGAAGCCTCCTGGCTTCCGGCGAA (5mC at 9 33) | 1210 a.u.
TTTCTCGGAAGCCTCCTGGCTTCCGAGAAA | 4930 a.u.
TTTCTCGGAAGCCTCCTGGCTTCCGAGAAA (5mC at 10) | 3760 a.u.
TTCCCCGGAAGCCTCCTGGCTTCCGGGGAA | 2320 a.u.
TTTCCTGGAAGCCTCCTGGCTTCCAGGAAA (5mC at 11) | 4590 a.u.
TTTTCCGGAAGCCTCCTGGCTTCCGGAAAA | 1580 a.u.

Block 3 — technique: protein-binding microarray; molecule type: double-stranded DNA, one strand shown; medium: in vitro; tested at: 250 nM; setting: 60-bp whole probe; with: salmon DNA 0.4 mg/ml; relative to: random background probes; direction: higher = stronger binding; constant ends, left off below: GCCTAGCAC … GTCTTGATTCGCTTGACGCTGCTG
Target: Interferon regulatory factor 5, full length, phosphomimetic (IRF5, Homo sapiens, UniProt Q13568-2, residues 1-514, K96S/S451D/S453D/S456D/S462D)
Sequence | log fluorescence [z-score]
GACGAACTGGGGTTTCGAGTCGTGCTA | 1.54
TTTTTCTCCTATTTAAGACAGTGCTAG | 2.1
TCATCTTTGCAGATAAAACTGTGCTAG | 0.624
GCCGAACTGAGTCTCGAGACGTGCTAG | -0.398
TTAGGGCTGGACTATCGGTTAGTGCTA | 4.89
TCAATTTACATTTTAGTACTGTGCTAG | 1.04
TCAGAAATCAACTTTTTTACTGTGCTA | 0.907
TTAGAACTGGGGTATCGATTCGTGCTA | 1.82
TTAGGACTGGGTCTCGGGTAGTGCTAG | -0.632
TTAGGTTTCCTTTTCCTTTCGTGCTAG | 2.84
AACGGTATCGACTATCGGGACGTGCTA | 4.27
TTAGATTTCGGGGTTCGATTAGTGCTA | 3.29
ATAGGTATCGGGTATCGGTTAGTGCTA | 6.73
TTAGGACTGCTTTGCCTTTAGTGCTAG | -0.162
GACGGTATCAGACTGGAGACGTGCTAG | -0.0981
TTCTTTTTTTCTTTTATTAGGTGCTAG | 1.91
GAAAGAATCACAACTAGGAAGGTGCTA | 2.22
ATCCTTGTCCCTCCGGGAGCGTGCTAG | -0.366
ACCGCATTCGAATTCAGAATGTGCTAG | 0.388
TTGGATATCGGGTTTCGATTAGTGCTA | 7.22
GACGATCTCAGATTGGAGACGTGCTAG | -0.382
TTAGATATCGGGACTGCATTAGTGCTA | 1.12

Block 4 — technique: DHFR PCA, deep sequencing; medium: yeast; with: (+)-ABA 200 µM; relative to: wild-type fitted maximum; direction: higher = stronger binding
Target: ABI1, truncated, D143A, DHFR fusion (Arabidopsis thaliana)
Setting: methotrexate growth selection, single substitutions
Starting sequence: PYL1, truncated, DHFR fusion (Arabidopsis thaliana); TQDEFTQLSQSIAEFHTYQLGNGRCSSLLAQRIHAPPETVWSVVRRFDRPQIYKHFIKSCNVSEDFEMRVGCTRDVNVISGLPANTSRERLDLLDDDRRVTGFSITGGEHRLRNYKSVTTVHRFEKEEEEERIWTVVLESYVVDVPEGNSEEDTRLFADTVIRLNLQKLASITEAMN
Change | relative binding score [%]
A170F | 3.25
L28R | 89.1
R46C | 88.2
C60N | 37.7
T1W | 88.3
Q2N | 90.7
E67K | 104
R49C | 96.5
C25H | 50.1
R69V | 101
E128M | 106
P83R | 5.37
D48Y | 32.2
V70Y | 63.4
F15A | 53.3
V40E | -20.5
T6L | 93.7
V78T | 91.7
R163G | 82.9
P146R | 15.9
F103G | -10.3
H122V | 44.2
P146S | 62.2

Block 5 — technique: RNA Bind-n-Seq; molecule type: RNA; medium: in vitro; tested at: 365 nM; relative to: no-protein control; direction: higher = stronger binding
Target: RNA binding protein fox-1 homolog 2, RRM domain, GST-SBP tag (RBFOX2, Homo sapiens, UniProt O43251-10, residues 100-194)
Setting: natural RNA segment, single round, ends assumed
Constant ends, left off below: GGGAGUUCUACAGUCCGACGAUC … UGGAAUUCUCGGGUGCCAA
Construct (chain): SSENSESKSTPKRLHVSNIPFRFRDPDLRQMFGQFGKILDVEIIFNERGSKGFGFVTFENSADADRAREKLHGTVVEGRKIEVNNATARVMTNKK
Sequence | RBNS enrichment (R)
ACUGUGACAUCAGCCUUUGAUAGUAGGACAUUAUUUCUUGAUUUCCUUAUUAAAAGAAAAAAAUGGGUGCUAGUGGUAAUUUGCUUUGUGGCUUAGCAACCUAGUUUGUG | 0.998
UGCAAAGGGAAUGAAAUCCUGAAGCUCAGAGUGAAGUUCAAACCACGGCGUCCCGCAGAGCCUAGUCUGAACCACCCCAUGCCCACCCUGUGUUCCCGAGCGCUUCCAGG | 0.422
GCUCUUGCUAUUAACGUUAUUUGUAAUUUAGUUUGUAGCUCAUUAAAAAAAUGUGCCUAGUUUUAUAGUUCAUCUCUUUCCUCCUCUUAUUUACUGAAAGAAUGGUGGGA | 0.576
CUAGACACUCCUUGAAAUGUGUGUGUGAUGGAGGGAAGGGGACAGAUUUGAGGACUGAAGCUGGGGCUUGGGGAUUGCCACUAAGUACAGCUGACGGUUUCUCCCCGGAC | 3.24
ACUUCUGUGACUUUAGACAUGCUUUCUUGUAGUGCUUCUGCAAAGGGACUUUUUUUGAAUCCUCAGUGGCAUUUUUUUAAGGGAAAUAUGCAGAGUGGAUAUCUGGGUGG | 1.78
CCAUGUGGUCACAGCCUGCCAGCAGCAAGACACCUGGGUCCACCACACCUCAGUGGAAGUAGCAGAAUGCCUCCCUGACCCGGGGCUCUUAGGGACUCUUGCUGCUAUGC | 0.472
CGACUCACGCCUUAAAGCCACACUUUUUAUUCUCUCCAGGAACCUGCUAUUGAUUAGGUUAUACCUGAGGUACUUAAAAUAUGCAGUAGAAUUAAUGUCUUACUAAAGUG | 0.336
AAACAGCAAGUGAUUUCAGAAUGUUGUAGGCCUCAUUAGAGCUUGGUCUCCAAAAAUCUGUUUGAAAAAAGCAACAUGUUCUUCACAGUGUUCCCCUAGAAAGGAAGAGA | 0.606
CUGAGCUGGGUGGGAGGCCAUCCUGGCGACCACUGCCCAUUCCAUUCACCCCUCACUGUACCUGCCCUAGAACCUGGGCCUAGGCCACAGGGGCAGGGAGAAGAGAAGGC | 0.17
UGUCACAUGUGGGCCAAGAAUAGAGUCACAUGUGGUGGAAAGAUGAGGAGUUAGGCUGUAGAAGUGACAGUUUCCAGUCAAAUCUGUAAACCCAGCCCCCAAGCUGAGAC | 0.401
UUCACAUUACAAUAAUAUGUGUAGUAGUUGAAUUGUGUUAUCAAAGCAUGUCCAACUUCUGUCCAGAUGACAUUAAAACCAAAGCCUAAUUGUUAAGCCUCUUAUUCUAA | 4.29
UUCUCUUCUACAAAGACCCCAGCAGGAGUGGGAGGGUCUGCAAUGGCAUCGCCCUGUCCUGCCUUGGCCAGAAGCCUGGAGCUUUGGUUUGAGGAGGUAGAGAUAUGUGU | 0.282

A few entries again (block 1):
Change | normalised enrichment score
A1Y | 0.507
R2N | 0.53
I9L | 0.725
G13R | 0.244
G13Q | 0.443
D11E | 0.802
I9K | 0.993
K4T | 0.377
